Experimental data pooled from the literature.
Each line is one published result; not all experiments were run side by side. ± marks the error that the study gave.
NR3C1: Glucocorticoid receptor (NR3C1, Homo sapiens, UniProt P04150)

The chains behind the UniProt entries cited, without tags or fusion partners. Residues count along the entry.
UniProt P04150, whole entry: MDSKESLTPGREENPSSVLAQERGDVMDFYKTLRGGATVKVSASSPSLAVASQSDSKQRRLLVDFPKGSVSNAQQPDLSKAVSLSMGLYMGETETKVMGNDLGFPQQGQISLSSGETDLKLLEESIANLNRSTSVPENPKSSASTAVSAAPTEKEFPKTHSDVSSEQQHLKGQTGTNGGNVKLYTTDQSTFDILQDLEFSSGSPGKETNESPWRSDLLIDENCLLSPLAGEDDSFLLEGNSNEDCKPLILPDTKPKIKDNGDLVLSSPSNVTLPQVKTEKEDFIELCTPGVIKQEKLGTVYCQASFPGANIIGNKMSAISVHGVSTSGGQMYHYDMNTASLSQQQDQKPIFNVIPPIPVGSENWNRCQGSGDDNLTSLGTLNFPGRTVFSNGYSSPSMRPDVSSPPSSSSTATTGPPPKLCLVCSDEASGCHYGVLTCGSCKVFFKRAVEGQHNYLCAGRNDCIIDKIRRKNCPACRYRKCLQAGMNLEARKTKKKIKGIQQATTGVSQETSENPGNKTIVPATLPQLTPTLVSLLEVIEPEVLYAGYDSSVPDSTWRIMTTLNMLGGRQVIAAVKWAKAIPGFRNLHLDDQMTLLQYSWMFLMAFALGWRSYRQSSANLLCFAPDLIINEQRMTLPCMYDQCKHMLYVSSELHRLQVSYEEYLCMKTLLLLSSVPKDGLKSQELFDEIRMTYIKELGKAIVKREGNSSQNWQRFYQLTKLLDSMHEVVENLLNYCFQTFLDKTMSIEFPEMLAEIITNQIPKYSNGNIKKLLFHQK
UniProt P10636, whole entry, looked up: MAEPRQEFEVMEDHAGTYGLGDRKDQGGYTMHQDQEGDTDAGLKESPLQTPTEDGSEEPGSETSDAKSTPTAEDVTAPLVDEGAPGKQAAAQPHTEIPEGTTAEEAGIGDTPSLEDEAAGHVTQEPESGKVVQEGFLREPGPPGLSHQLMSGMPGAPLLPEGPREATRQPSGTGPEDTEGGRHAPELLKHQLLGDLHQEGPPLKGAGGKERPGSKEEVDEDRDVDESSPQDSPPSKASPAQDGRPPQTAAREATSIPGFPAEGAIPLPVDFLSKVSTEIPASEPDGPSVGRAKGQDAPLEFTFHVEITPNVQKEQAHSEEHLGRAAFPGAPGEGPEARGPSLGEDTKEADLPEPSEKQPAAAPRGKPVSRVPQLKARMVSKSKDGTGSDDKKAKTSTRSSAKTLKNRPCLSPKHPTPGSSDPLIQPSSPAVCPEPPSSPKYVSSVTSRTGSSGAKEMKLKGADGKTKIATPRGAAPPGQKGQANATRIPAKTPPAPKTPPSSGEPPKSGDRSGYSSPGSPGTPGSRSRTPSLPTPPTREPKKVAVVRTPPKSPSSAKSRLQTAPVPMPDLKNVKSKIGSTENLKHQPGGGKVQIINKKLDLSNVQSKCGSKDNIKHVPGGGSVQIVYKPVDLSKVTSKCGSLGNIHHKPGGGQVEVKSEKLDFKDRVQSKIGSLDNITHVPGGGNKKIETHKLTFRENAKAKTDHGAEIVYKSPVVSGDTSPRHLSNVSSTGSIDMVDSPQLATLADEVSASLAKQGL
UniProt Q9QWY8, 325-451 limits assumed: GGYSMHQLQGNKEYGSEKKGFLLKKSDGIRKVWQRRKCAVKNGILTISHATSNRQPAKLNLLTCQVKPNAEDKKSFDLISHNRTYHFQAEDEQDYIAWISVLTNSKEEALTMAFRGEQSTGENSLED
UniProt Q16539, whole entry: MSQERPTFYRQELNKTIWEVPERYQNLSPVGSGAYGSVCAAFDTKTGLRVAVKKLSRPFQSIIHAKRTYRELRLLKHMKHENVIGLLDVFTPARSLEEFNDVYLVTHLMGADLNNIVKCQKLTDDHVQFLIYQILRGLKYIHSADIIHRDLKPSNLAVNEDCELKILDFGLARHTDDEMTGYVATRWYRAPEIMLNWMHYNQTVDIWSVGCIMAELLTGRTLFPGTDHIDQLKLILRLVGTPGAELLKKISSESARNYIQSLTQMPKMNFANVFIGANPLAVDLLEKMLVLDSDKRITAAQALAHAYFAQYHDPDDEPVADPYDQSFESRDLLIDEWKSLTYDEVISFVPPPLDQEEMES
UniProt P35236, whole entry: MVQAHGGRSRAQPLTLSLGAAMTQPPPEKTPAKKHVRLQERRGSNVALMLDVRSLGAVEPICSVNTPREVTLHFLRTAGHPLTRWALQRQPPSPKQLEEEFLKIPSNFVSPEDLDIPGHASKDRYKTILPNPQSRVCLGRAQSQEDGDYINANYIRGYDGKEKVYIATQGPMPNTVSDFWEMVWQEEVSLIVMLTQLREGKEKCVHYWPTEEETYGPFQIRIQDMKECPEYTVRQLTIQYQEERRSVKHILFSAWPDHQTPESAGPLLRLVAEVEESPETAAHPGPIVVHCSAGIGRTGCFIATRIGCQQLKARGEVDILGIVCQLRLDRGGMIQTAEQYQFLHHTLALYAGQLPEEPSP
UniProt P55201, whole entry: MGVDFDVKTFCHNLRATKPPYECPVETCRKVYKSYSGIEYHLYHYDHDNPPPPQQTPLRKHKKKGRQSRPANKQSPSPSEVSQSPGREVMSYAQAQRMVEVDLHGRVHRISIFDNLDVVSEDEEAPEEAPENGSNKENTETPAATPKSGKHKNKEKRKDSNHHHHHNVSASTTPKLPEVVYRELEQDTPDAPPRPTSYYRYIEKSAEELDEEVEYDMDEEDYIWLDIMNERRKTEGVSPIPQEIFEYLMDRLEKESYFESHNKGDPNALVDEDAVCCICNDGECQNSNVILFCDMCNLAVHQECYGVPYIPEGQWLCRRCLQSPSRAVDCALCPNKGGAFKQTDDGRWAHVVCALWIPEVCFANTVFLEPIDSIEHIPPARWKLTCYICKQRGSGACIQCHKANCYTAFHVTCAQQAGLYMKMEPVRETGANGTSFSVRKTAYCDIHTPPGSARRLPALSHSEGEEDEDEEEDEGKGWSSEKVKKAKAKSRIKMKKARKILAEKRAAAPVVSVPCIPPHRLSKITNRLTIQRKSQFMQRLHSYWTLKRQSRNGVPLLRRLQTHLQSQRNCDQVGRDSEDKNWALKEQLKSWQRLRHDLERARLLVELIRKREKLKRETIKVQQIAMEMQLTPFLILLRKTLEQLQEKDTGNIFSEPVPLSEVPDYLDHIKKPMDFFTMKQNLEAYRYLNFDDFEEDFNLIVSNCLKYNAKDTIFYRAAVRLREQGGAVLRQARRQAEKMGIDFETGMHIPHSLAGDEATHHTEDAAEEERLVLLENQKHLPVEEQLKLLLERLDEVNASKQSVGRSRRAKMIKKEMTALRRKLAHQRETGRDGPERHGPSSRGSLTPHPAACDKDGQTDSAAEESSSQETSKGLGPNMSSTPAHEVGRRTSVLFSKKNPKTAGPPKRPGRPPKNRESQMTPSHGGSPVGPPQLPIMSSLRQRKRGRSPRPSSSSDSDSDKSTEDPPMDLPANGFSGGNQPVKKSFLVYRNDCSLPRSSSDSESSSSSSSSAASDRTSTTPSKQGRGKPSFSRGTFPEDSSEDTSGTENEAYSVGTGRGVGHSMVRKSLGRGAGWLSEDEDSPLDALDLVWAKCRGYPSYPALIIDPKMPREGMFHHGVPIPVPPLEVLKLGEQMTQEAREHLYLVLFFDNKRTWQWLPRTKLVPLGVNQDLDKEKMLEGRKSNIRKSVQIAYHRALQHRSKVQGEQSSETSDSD
UniProt Q05209, whole entry: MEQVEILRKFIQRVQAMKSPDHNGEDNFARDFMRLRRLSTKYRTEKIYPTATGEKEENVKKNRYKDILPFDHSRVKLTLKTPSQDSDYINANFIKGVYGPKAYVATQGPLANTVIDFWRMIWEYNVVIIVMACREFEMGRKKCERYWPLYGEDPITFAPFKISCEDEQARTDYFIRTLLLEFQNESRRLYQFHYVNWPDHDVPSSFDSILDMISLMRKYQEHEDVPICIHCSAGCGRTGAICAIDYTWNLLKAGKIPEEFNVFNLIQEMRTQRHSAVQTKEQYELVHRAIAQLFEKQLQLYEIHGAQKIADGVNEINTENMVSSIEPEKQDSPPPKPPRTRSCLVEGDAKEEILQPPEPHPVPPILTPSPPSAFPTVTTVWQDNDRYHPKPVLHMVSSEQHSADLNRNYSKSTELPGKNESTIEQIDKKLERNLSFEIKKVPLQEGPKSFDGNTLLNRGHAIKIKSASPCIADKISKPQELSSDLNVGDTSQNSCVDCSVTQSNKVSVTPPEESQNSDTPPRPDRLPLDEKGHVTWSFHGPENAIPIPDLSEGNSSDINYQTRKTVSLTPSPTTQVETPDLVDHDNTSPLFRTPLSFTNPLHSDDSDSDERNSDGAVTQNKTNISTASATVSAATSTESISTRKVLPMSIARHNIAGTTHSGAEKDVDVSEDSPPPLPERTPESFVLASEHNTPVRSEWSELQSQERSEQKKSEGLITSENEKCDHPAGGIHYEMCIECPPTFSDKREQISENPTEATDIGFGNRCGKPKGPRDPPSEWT
UniProt Q9Y2R2, whole entry: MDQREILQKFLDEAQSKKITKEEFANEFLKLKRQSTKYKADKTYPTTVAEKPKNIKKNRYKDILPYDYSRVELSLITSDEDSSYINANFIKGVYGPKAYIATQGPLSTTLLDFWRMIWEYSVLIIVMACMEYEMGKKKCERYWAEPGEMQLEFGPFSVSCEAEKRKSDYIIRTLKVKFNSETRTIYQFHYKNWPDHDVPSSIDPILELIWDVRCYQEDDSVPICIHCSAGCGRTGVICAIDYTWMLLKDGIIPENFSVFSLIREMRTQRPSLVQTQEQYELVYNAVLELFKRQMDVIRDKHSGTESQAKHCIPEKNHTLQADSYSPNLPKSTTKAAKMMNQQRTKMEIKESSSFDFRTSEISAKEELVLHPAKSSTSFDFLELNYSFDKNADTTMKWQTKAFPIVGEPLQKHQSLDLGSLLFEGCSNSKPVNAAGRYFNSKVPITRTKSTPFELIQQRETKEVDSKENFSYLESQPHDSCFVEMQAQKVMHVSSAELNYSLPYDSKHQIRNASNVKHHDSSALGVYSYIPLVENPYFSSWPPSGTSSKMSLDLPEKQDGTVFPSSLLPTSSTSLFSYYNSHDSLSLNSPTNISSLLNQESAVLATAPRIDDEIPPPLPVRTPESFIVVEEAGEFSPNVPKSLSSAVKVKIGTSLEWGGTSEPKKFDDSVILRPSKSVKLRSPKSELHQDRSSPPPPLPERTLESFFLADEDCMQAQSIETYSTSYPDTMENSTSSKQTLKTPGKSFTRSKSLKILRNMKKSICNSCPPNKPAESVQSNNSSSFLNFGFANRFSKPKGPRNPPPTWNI
UniProt Q9NYA1, 1-470 isoform 2: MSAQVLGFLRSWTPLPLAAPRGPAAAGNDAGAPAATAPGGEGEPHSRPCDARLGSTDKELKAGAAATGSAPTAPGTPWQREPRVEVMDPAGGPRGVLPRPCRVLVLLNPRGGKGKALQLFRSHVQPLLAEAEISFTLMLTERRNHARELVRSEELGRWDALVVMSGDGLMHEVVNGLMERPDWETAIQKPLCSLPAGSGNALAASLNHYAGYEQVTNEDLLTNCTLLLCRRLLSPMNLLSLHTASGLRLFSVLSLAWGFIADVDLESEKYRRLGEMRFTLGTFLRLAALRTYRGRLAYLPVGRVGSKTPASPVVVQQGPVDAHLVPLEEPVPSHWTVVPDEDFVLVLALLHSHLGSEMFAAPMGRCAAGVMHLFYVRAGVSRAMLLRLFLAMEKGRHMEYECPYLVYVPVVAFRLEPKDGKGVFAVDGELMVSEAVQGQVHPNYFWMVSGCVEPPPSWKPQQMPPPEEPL
UniProt Q16828, whole entry: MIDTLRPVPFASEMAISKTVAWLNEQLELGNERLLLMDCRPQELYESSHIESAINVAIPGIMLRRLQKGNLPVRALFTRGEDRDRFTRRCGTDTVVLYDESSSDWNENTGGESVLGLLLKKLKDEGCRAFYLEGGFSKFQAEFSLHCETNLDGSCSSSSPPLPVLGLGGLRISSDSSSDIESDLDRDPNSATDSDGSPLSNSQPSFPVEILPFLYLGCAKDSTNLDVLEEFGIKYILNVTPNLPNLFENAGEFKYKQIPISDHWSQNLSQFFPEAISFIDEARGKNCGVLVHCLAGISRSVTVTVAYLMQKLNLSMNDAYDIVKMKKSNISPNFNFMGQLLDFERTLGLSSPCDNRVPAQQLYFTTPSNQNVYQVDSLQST

O=C(Nc1cccnn1)N1CC(Oc2ccc(-c3ccccc3F)cn2)C1
dose giving maximum increase (item: plasma endocannabinoids; human, plasma; oral, repeated daily dosing): 300 to 500 mg/day

Fc1cc(-c2ccc3c(n2)[nH]c2ccncc23)ccn1 [isotope labelled]
specific binding (Microtubule-associated protein tau, paired helical filaments (MAPT, Homo sapiens, UniProt P10636); radioligand binding; PHF tau brain homogenate; 102.04 nM; higher = more binding): 20.2 a.u.

CCCCCCCC(=O)OCC(COP(=O)(O)OC1C(O)C(O)C(OP(=O)(O)O)C(OP(=O)(O)O)C1O)OC(=O)CCCCCCC (stereo not shown)
Kd (Arf-GAP with SH3 domain, ANK repeat and PH domain-containing protein 1 (Asap1, Mus musculus, UniProt Q9QWY8); protein binding to vesicles, vesicle sedimentation; large unilamellar vesicles; isolated PH domain, together with: 75 µM phosphatidylserine): 7 ± 1 µM

CC(=O)OC1=CC2=CC[C@H]3[C@H]4CCC(=O)[C@@]4(C)CC(=O)[C@]3(S)[C@]2(C)CC1
EC50 (NR3C1; nuclear translocation, agonist, enzyme fragment complementation): > 9 µM

CCN1CCN(Cc2ccc(NC(=O)c3ccc(C)c(Oc4ncnc5cc(OC)c(OC)cc45)c3)cc2C(F)(F)F)CC1
IC50 (MAPK14 (Homo sapiens, UniProt Q16539); enzyme activity, Z'-LYTE; together with: ATP at Km): 0.126 µM

O=c1/c(=C/c2ccc(-c3ccccc3[N+](=O)[O-])o2)sc2nc3cc(Br)cnc3n12
IC50 (PTPN7 (Homo sapiens, UniProt P35236); phosphatase activity, inhibitor; together with: OMFP): 4.9 µM

CC[C@@H]1C(=O)N(C)c2cnc(Nc3ccc(C(=O)NC4CCN(C)CC4)cc3OC)nc2N1C1CCCC1
delta Tm (Peregrin, bromodomain (BRPF1, Homo sapiens, UniProt P55201); 10 µM): 1.57 ± 0.42 °C

CS[C@]12C(=O)C[C@]3(C)[C@@H](CC[C@@]3(O)C(=O)CO)[C@@H]1CCC1=CC(=O)CC[C@]12C
EC50 (NR3C1; nuclear translocation, agonist, enzyme fragment complementation): > 9 µM

COc1cc(CC(=O)NCC(NC(=O)C(CCCNC(=O)c2cccc(I)c2)NC(=O)C(Cc2ccc(C(F)(F)P(=O)(O)O)cc2)NC(=O)c2ccc(C)c(Br)c2)C(N)=O)ccc1O (stereo not shown)
inhibition (PTPN12 (Homo sapiens, UniProt Q05209); enzyme activity; 10 µM): no inhibition

Cc1cc(C)c2nc3s/c(=C\c4ccc(-c5ccccc5C(=O)O)o4)c(=O)n3c2c1
IC50 (PTPN22 (Homo sapiens, UniProt Q9Y2R2); phosphatase activity, inhibitor; together with: OMFP): 30 µM

O=C1C(=Cc2ccc(O)c(O)c2)Oc2ccccc21
Ki (SPHK1 (Homo sapiens, UniProt Q9NYA1); inhibitor, TLC): 8 µM

CC(=O)OCC(=O)[C@]12OC(C)(C)O[C@@H]1C[C@H]1[C@H]3CC=C4C[C@@H](O)CC[C@]4(C)[C@H]3CC[C@]12C
EC50 (NR3C1; nuclear translocation, agonist, enzyme fragment complementation): > 9 µM

O=c1/c(=C/c2ccc(-c3cc(Cl)cc(Cl)c3)o2)sc2nc3cc(Br)cnc3n12
IC50 (Dual specificity protein phosphatase 6 (Homo sapiens, UniProt Q16828); phosphatase activity, inhibitor; together with: OMFP): > 100 µM

For quick reference, copied from above:
CC[C@@H]1C(=O)N(C)c2cnc(Nc3ccc(C(=O)NC4CCN(C)CC4)cc3OC)nc2N1C1CCCC1
delta Tm (Peregrin, bromodomain (BRPF1, Homo sapiens, UniProt P55201); 10 µM): 1.57 ± 0.42 °C
